Assay results from different studies.
Numbered parts are unrelated; each lists some results of a single study. Changes are numbered by the printed parent chain.
Sequence of UniProt Q6PHR2 (whole entry, looked up): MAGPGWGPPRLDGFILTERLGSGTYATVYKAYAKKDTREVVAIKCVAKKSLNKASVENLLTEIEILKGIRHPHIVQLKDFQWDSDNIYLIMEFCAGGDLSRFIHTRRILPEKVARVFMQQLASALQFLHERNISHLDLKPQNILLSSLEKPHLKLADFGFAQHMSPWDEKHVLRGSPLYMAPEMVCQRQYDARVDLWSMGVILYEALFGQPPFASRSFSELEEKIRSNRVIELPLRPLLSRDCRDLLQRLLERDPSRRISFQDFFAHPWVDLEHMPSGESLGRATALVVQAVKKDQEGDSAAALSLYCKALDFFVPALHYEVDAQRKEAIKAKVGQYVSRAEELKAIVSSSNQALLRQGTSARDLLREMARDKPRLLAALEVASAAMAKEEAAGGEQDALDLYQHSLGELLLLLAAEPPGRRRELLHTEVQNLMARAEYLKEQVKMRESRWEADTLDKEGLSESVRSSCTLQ
Sequence of UniProt Q12866 (whole entry, looked up): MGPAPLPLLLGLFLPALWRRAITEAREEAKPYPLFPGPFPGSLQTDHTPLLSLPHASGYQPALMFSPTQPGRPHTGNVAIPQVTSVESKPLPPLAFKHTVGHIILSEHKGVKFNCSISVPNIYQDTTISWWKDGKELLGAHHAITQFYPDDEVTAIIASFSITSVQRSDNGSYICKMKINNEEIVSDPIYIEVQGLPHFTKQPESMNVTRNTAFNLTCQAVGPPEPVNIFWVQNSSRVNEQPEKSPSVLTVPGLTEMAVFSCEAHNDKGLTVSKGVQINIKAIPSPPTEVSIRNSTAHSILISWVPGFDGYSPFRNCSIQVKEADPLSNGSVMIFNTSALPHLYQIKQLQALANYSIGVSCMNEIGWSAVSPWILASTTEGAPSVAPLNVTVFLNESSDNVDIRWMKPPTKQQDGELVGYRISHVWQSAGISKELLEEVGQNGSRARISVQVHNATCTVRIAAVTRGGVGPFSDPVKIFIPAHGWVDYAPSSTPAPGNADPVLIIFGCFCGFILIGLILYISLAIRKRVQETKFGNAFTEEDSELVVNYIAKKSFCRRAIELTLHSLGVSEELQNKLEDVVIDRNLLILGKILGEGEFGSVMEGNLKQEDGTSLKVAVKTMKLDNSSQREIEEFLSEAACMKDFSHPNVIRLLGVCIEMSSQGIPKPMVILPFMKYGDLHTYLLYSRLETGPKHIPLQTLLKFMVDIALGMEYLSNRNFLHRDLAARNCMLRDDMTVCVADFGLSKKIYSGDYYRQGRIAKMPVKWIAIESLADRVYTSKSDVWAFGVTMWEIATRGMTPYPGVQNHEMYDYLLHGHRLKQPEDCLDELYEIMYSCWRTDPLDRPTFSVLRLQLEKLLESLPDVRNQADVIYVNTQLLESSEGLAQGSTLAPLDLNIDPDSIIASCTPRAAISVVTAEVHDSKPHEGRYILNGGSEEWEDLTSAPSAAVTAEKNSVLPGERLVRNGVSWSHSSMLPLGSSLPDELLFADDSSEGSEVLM
Sequence of UniProt P36894 (whole entry, looked up): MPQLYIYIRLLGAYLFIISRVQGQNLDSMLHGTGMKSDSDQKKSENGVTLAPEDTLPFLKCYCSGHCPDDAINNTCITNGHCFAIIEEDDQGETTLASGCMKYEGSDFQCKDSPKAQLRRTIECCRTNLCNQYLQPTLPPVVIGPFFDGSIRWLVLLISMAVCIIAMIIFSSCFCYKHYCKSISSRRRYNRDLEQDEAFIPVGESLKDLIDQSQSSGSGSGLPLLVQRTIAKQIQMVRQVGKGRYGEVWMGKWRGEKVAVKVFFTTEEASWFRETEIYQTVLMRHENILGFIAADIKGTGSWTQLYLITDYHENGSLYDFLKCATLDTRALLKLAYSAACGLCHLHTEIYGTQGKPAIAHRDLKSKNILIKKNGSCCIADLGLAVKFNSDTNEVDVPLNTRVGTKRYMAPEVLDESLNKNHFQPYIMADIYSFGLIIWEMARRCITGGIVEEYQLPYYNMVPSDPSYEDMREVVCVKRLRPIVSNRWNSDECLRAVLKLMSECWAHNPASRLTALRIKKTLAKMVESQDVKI
Sequence of UniProt O15075 (whole entry, looked up): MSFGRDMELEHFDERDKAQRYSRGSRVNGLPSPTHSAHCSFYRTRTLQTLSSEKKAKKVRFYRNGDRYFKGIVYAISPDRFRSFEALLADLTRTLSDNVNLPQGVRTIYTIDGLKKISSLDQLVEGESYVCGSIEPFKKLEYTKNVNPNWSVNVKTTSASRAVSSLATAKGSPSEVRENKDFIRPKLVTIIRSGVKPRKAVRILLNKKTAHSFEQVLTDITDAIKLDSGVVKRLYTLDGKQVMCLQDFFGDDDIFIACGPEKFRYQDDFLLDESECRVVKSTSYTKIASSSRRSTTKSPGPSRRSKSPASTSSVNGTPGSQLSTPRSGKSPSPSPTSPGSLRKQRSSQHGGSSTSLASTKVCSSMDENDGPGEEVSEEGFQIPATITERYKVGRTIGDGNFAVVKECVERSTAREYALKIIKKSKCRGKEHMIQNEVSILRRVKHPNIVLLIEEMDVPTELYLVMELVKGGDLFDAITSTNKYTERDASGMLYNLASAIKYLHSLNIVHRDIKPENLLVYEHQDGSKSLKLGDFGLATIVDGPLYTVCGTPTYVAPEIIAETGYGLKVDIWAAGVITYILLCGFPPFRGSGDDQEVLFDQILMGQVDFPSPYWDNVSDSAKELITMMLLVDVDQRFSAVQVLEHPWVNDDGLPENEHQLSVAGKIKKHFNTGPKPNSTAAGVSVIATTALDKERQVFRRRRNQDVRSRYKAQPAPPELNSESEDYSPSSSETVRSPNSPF
Sequence of UniProt Q9HCP0 (whole entry, looked up): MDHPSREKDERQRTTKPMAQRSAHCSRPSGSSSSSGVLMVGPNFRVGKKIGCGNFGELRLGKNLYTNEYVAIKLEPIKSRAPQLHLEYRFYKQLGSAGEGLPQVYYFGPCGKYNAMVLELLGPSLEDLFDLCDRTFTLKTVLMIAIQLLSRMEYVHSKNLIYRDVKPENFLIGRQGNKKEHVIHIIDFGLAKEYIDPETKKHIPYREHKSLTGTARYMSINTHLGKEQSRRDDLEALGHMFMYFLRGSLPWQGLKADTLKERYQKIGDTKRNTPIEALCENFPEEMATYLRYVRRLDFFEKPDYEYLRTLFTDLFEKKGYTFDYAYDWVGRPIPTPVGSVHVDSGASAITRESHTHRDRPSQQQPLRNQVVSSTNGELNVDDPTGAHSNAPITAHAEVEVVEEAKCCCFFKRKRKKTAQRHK
Sequence of UniProt Q02763 (whole entry, looked up): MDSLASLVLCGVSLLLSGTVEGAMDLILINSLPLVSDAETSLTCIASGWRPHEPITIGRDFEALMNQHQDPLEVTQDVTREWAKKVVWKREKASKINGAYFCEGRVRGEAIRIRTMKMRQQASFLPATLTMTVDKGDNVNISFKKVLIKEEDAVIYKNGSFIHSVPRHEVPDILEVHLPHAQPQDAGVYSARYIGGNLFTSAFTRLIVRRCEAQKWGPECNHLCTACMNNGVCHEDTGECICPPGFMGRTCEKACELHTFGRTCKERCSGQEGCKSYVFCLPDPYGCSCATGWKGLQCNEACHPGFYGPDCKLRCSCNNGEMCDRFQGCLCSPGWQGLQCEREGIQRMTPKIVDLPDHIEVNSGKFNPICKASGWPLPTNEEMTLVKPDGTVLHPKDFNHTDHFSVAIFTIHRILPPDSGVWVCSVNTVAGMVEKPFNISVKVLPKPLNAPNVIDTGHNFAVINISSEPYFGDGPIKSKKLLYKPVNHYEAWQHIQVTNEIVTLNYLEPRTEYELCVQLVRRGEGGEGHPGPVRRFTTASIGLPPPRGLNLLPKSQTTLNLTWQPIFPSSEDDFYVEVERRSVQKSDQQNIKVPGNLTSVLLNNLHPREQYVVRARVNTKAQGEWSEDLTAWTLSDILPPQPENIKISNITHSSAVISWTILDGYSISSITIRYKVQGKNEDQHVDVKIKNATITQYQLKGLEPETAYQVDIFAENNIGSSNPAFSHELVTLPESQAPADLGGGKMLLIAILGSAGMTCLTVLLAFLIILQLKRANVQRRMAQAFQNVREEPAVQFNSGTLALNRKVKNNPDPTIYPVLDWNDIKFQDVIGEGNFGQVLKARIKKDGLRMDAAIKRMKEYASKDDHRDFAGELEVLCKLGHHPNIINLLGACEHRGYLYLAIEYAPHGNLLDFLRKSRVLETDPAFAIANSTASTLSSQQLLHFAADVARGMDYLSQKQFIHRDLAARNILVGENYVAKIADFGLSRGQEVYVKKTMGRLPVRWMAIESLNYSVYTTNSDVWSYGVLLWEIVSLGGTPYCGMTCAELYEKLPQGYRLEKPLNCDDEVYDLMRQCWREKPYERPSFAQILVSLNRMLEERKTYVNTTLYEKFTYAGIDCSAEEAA
Sequence of UniProt Q8WTQ7 (whole entry, looked up): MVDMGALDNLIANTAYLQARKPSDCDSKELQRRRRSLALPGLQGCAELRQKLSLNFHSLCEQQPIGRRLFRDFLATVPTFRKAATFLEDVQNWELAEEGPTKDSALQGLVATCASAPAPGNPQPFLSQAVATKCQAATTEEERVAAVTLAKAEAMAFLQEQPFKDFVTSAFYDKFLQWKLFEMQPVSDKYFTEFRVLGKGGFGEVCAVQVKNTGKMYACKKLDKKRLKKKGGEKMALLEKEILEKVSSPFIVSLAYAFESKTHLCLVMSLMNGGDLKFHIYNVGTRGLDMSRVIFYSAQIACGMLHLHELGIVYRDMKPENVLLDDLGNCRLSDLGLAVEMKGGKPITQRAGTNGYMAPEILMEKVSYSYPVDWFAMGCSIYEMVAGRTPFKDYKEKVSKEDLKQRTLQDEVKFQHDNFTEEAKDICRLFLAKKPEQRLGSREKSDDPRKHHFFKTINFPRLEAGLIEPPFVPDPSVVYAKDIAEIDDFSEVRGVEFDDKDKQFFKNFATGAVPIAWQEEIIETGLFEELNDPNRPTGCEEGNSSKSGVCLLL

Study 1 — method: protein binding microarray; molecule type: double-stranded DNA, one strand shown; medium: in vitro; tested at: not given; baseline: not given; reading: higher = stronger binding
Target: Histone acetyltransferase KAT6A, both winged helices, GST fusion (KAT6A, Homo sapiens, UniProt Q92794, residues 1-181)
Notes: 8-mer, flanks averaged, mean of 2 arrays, mostly near background
Construct (chain): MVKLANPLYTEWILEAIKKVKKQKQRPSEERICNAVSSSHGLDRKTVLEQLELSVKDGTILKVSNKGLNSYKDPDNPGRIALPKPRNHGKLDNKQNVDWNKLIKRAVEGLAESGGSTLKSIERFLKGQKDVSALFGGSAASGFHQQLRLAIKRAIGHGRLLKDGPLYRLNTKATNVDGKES
| Oligonucleotide | E-score |
| --- | --- |
| CACCTGAA | -0.0653 |
| ACAGTCGA | -0.116 |
| CAATACCG | 0.17 |
| CCAATCGG | -0.11 |
| CGTACTCA | 0.00167 |
| ATGTGGCA | -0.0944 |
| AGCGATCA | 0.102 |
| GACAATTA | -0.0984 |

Study 2 — effect on: enzyme activity; mode: inhibitor; tested at: 0.5 µM; baseline: control
SMILES: CN([C@@H](Cc1ccc(OS(=O)(=O)c2cccc3cnccc23)cc1)C(=O)N1CCN(c2ccccc2)CC1)S(=O)(=O)c1cccc2cnccc12
| target | remaining activity |
| --- | --- |
| GRK7 (Homo sapiens, UniProt Q8WTQ7) | 105% |
| JAK3 (Homo sapiens, UniProt P52333) | 98% |
| MERTK (Homo sapiens, UniProt Q12866) | 100% |
| FGFR3 (Homo sapiens, UniProt P22607) | 98.8% |
| GSK3B (Homo sapiens, UniProt P49841) | 96.6% |
| CSNK1G3 (Homo sapiens, UniProt Q9Y6M4) | 104% |
| ULK3 (Homo sapiens, UniProt Q6PHR2) | 98.6% |
| TEK (Homo sapiens, UniProt Q02763) | 106% |
| TBK1 (Homo sapiens, UniProt Q9UHD2) | 101% |
| FGFR1 (Homo sapiens, UniProt P11362) | 103% |
| MAP3K14 (Homo sapiens, UniProt Q99558) | 90.7% |

Study 3 — target: JUND, bZIP domain (human); method: DHFR protein complementation; medium: yeast; baseline: wild-type JUN-FOS pair; reading: higher = stronger binding
Notes: single substitutions, most at no-binding floor
Starting sequence: JUN, bZIP domain (human); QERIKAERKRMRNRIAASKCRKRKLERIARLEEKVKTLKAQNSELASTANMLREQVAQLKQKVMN; partner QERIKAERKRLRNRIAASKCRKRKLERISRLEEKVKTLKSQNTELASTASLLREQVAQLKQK
| Change | binding fitness [natural log] |
| --- | --- |
| E44F | -0.866 |
| K36H | -0.899 |
| A57L | -1.07 |
| S47T | -0.612 |
| E33T | -1.08 |
| T37C | -0.633 |
| M51G | -0.796 |
| A40H | -0.786 |

Study 4 — tested at: 0.1 µM
Compound: C[C@H](c1ccnc(Nc2nc3ccc(-c4cc(N(C)C)ncn4)cc3[nH]2)c1)N1CCN(C(=O)CC(F)(F)F)CC1
| target | effect on | method | remaining binding [%] |
| --- | --- | --- | --- |
| CSNK1G1 (Homo sapiens, UniProt Q9HCP0) | cell-free assay | competition with immobilised ligand | 100 |
| DCLK1 (Homo sapiens, UniProt O15075) | cell-free assay | competition with immobilised ligand | 96 |
| CDK19 (Homo sapiens, UniProt Q9BWU1) |  | competition binding | 93 |
| CDK9 (Homo sapiens, UniProt P50750) | cell-free assay | competition with immobilised ligand | 100 |
| BMPR1A (Homo sapiens, UniProt P36894) | binding | competition with immobilised ligand | 97 |
| PI4KB (Homo sapiens, UniProt Q9UBF8) | cell-free assay | competition with immobilised ligand | 100 |

For quick reference, copied from above (study 3):
| Change | binding fitness [natural log] |
| --- | --- |
| S47T | -0.612 |
| A40H | -0.786 |
